Experimental data gathered from unrelated publications.
Protocols differ between the studies behind these lines.
Route: oral

For C[C@H]1O[C@@H](O[C@H]2[C@@H](O)C[C@H](O[C@H]3[C@@H](O)C[C@H](O[C@H]4CC[C@@]5(C)[C@H](CC[C@@H]6[C@@H]5C[C@@H](O)[C@]5(C)[C@@H](C7=CC(=O)OC7)CC[C@]65O)C4)O[C@@H]3C)O[C@@H]2C)C[C@H](O)[C@@H]1O, “participants with TEAE” read 3.4% (refers to: Somnolence; human; 0.25 mg).
CC(C)c1nc(CN(C)C(=O)N[C@@H](CCN2CCOCC2)C(=O)N[C@H](CC[C@H](Cc2ccccc2)NC(=O)OCc2cncs2)Cc2ccccc2)cs1 — result for “participants with Urticaria”: 0% (human; dose not given).
CCn1c(=O)c(-c2cc(NC(=O)Nc3ccccc3)c(F)cc2Br)cc2cnc(NC)cc21: “participants with grade ≥ 3 TEAE” 12.5% (refers to: lipase increased; human, moderate hepatic impairment; 50 mg single dose).
CCCS(=O)(=O)N[C@H]1C[C@@H](N(C)c2ncnc3[nH]ccc23)C1 — result for “participants with TRAEs”: 25% (healthy human; dose not given, together with: dabigatran etexilate).
COC(=O)N[C@H](C(=O)N1CCC[C@H]1c1ncc(-c2cc(F)c3c(c2)O[C@@H](c2cnc(C4CC4)s2)n2c-3cc3cc(-c4cnc([C@@H]5CCCN5C(=O)[C@@H](NC(=O)OC)C(C)C)[nH]4)ccc32)[nH]1)C(C)C — result for “participants with Nausea”: 0% (healthy adult humans; 180 mg, 6 days).
Under “participants with any TEAE”, CN1C(=O)[C@@H](NC(=O)c2nnc(Cc3ccccc3)[nH]2)COc2cccnc21 is recorded as 50% (phase I single ascending dose; human, male and female; 800 mg, fasted).
For CC(C)c1nc(N(C)S(C)(=O)=O)nc(-c2ccc(F)cc2)c1/C=C/[C@@H](O)C[C@@H](O)CC(=O)O, “participants with TEAE” read 6.9% (refers to: vessel puncture site pain; human; 10 mg).
Under “participants with TRAEs”, CC(C)c1nc(N(C)S(C)(=O)=O)nc(-c2ccc(F)cc2)c1/C=C/[C@@H](O)C[C@@H](O)CC(=O)O is recorded as 0% (human; 10 mg, alone).

Excerpt of the above:
CCn1c(=O)c(-c2cc(NC(=O)Nc3ccccc3)c(F)cc2Br)cc2cnc(NC)cc21: “participants with grade ≥ 3 TEAE” 12.5% (refers to: lipase increased; human, moderate hepatic impairment; 50 mg single dose).
